Results collected from several papers.
Numbers after ± are the reported error.
SMC6: SMC6 (Saccharomyces cerevisiae, UniProt Q12749)
UniProt Q12749, sequence (whole entry, looked up): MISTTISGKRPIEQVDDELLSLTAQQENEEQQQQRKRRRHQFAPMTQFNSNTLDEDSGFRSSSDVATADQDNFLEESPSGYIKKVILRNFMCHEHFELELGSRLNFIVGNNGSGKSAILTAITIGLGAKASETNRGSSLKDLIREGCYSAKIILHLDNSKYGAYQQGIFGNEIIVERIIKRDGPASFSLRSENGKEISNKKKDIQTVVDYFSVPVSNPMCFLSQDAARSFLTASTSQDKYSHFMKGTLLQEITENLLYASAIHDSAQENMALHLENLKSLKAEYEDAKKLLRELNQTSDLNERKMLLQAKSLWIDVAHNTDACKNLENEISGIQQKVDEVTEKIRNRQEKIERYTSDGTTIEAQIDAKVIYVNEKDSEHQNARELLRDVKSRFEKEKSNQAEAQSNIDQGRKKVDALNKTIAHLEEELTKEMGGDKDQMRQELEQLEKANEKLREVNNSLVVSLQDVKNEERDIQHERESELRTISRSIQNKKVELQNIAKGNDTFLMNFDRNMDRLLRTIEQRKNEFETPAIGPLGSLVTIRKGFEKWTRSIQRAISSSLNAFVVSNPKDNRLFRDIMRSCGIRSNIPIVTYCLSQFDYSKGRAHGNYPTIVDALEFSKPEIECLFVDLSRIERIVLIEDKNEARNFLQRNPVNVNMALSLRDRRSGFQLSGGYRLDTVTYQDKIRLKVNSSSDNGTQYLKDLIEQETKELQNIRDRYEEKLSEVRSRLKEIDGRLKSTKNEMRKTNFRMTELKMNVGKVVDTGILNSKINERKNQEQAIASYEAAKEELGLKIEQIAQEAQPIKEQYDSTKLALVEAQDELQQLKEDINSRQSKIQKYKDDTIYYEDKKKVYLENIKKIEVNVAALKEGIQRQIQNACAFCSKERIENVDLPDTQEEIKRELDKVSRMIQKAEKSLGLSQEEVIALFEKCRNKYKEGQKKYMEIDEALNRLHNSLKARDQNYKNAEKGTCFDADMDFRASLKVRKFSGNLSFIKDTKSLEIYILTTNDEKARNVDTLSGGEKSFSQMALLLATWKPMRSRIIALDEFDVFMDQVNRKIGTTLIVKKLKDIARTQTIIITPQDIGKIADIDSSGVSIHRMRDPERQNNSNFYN
NECTIN4: NECTIN4 32-349 (Homo sapiens, UniProt Q96NY8)
UniProt Q96NY8, sequence (whole entry, looked up): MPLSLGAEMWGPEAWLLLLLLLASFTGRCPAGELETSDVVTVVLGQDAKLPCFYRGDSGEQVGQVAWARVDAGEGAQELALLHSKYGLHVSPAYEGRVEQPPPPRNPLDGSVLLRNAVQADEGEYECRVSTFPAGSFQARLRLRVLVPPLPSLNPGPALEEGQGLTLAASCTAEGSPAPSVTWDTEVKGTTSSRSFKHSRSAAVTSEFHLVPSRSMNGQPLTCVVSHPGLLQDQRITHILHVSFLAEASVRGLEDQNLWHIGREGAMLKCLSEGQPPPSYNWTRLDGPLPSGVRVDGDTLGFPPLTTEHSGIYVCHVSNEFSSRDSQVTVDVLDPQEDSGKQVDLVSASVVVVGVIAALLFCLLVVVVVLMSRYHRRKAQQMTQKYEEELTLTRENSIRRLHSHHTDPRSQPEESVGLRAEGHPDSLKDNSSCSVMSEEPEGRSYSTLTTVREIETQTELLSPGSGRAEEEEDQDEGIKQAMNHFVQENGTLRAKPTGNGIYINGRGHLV
B1: SIGLEC15 20-263 (Homo sapiens, UniProt Q6ZMC9); sequence looked up; chain FVRTKIDTTENLLNTEVHSSPAQRWSMQVPPEVSAEAGDAAVLPCTFTHPHRHYDGPLTAIWRAGEPYAGPQVFRCAAARGSELCQTALSLHGRFRLLGNPRRNDLSLRVERLALADDRRYFCRVEFAGDVHDRYESRHGVRLHVTAAPRIVNISVLPSPAHAFRALCTAEGEPPPALAWSGPALGNSLAAVRSPREGHGHLVTAELPALTHDGRYTCTAANSLGRSEASVYLFRFHGASGAST
B2: LMNA 389-572 (Homo sapiens, UniProt P02545-2); sequence looked up; chain LSPSPTSQRSRGRASSHSSQTQGGGSVTKKRKLESTESRSSFSQHARTSGRVAVEEVDEEGKFVRLRNKSNEDQSMGNWQIKRQNGDDPLLTYRFPPKFTLKAGQVVTIWAAGAGATHSPPTDLVWKAQNTWGCGNSLRTALINSTGEEVAMRKLVRSVTVVEDDEDEDGDDLLHHHHVSGSRR
B3: EFR3A 721-791 (Homo sapiens, UniProt Q14156); chain SNTEEITFEALKKAIDTSGMEEQEKEKRRLVIEKFQKAPFEEIAAQCESKANLLHDRLAQILELTIRPPPS
B4: DLL4 27-400 G28S/F107L/I143F/H194Y/L206P/N257P/T271L/F280Y/S301R/Q305P (Homo sapiens, UniProt Q9NR61); sequence looked up; chain SSVFQLQLQEFINERGVLASGRPCEPGCRTFFRVCLKHFQAVVSPGPCTFGTVSTPVLGTNSFAVRDDSSGGGRNPLQLPLNFTWPGTFSLIIEAWHAPGDDLRPEALPPDALISKFAIQGSLAVGQNWLLDEQTSTLTRLRYSYRVICSDNYYGDNCSRLCKKRNDYFGHYVCQPDGNPSCLPGWTGEYCQQPICLSGCHEQNGYCSKPAECLCRPGWQGRLCNECIPHPGCRHGTCSTPWQCLCDEGWGGLYCDQDLNYCTHHSPCKNGATCRNSGPRSYTCTCRPGYTGVDCELELSECDSNPCRNGGSCKDQEDGYHCLCPPGYYGLHCEHSTLSCADSPCFNGGSCRERNQGANYACECPPNFTGSNCE
B5: TIMP1 (Homo sapiens, UniProt P01033); chain CTCVPPHPQTAFCNSDLVIRAKFVGTPEVNQTTLYQRYEIKMTKMYKGFQALGDAADIRFVYTPAMESVCGYFHRSHNRSEEFLIAGKLQDGLLHITTCSFVAPWNSLSLAQRRGFTKTYTVGCEECTVFPCLSIPCKLQSGTHCLWTDQLLQGSEKGFQSRHLACLPREPGLCTWQSLRSQIA
B6: AIPL1 residues 8-end 8-328 (Mus musculus, UniProt Q924K1); C-terminal Avi tag; sequence looked up; chain NVEGVKKTILHGGTGELPSFITGSRVTFHFRTMKCDDERTVIDDSKQVGQPMSIIIGNMFKLEVWETLLTSMRLGEVAEFWCDTIHTGVYPMLSRSLRQVAEGKDPTSWHVHTCGLANMFAYHTLGYEDLDELQKEPQPLVFLIELLQVEAPNEYQRETWNLNNEERMQAVPLLHGEGNRLYKLGRYDQAATKYQEAIVCLRNLQTKEKPWEVEWLKLEKMINTLILNYCQCLLKKEEYYEVLEHTSDILRHHPGIVKAYYMRARAHAEVWNAEEAKADLEKVLELEPSMRKAVLRELRLLESRLADKQEEERQRCRSMLG
B7: CD93 25-347 (Homo sapiens, UniProt Q9NPY3); chain DTEAVVCVGTACYTAHSGKLSAAEAQNHCNQNGGNLATVKSKEEAQHVQRVLAQLLRREAALTARMSKFWIGLQREKGKCLDPSLPLKGFSWVGGGEDTPYSNWHKELRNSCISKRCVSLLLDLSQPLLPSRLPKWSEGPCGSPGSPGSNIEGFVCKFSFKGMCRPLALGGPGQVTYTTPFQTTSSSLEAVPFASAANVACGEGDKDETQSHYFLCKEKAPDVFDWGSSGPLCVSPKYGCNFNNGGCHQDCFEGGDGSFLCGCRPGFRLLDDLVTCASRNPCSSSPCRGGATCVLGPHGKNYTCRCPQGYQLDSSQLDCVDVD
B8: NOTCH1 1758-2126 (Homo sapiens, UniProt P46531); sequence looked up; chain RKRRRQHGQLWFPEGFKVSEASKKKRREPLGEDSVGLKPLKNASDGALMDDNQNEWGDEDLETKKFRFEEPVVLPDLDDQTDHRQWTQQHLDAADLRMSAMAPTPPQGEVDADCMDVNVRGPDGFTPLMIASCSGGGLETGNSEEEEDAPAVISDFIYQGASLHNQTDRTGETALHLAARYSRSDAAKRLLEASADANIQDNMGRTPLHAAVSADAQGVFQILIRNRATDLDARMHDGTTPLILAARLAVEGMLEDLINSHADVNAVDDLGKSALHWAAAVNNVDAAVVLLKNGANKDMQNNREETPLFLAAREGSYETAKVLLDHFANRDITDHMDRLPRDIAQERMHHDIVRLLDEYNLVRSPQLHG
UniProt Q14956, sequence (whole entry, looked up): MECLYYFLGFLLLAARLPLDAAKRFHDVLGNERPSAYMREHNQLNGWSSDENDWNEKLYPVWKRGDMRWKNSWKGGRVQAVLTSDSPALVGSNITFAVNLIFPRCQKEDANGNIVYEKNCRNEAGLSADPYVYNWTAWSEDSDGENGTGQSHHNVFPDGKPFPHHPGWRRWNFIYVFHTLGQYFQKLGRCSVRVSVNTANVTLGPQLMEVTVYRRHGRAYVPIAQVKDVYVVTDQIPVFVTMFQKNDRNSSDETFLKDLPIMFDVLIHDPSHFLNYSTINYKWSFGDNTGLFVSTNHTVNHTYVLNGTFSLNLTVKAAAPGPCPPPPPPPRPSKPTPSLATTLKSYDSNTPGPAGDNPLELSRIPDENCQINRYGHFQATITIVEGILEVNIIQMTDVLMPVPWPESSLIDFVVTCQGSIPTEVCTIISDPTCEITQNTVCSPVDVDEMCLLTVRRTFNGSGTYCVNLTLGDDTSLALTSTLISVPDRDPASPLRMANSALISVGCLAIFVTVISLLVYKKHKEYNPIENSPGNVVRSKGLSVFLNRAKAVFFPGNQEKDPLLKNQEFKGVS
UniProt P03956, sequence (whole entry, looked up): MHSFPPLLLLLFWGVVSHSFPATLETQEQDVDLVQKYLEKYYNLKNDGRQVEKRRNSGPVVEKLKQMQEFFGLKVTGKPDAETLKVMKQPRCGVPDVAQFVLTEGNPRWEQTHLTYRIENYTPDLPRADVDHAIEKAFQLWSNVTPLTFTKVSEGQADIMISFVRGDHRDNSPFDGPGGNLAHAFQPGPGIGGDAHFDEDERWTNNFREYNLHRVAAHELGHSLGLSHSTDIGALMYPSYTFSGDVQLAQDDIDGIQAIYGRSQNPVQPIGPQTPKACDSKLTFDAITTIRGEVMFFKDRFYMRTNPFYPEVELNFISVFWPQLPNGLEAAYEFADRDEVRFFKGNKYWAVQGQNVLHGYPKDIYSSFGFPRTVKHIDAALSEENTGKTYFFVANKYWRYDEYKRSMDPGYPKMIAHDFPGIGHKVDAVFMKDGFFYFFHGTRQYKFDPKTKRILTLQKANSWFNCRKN
UniProt P40359, sequence (whole entry, looked up): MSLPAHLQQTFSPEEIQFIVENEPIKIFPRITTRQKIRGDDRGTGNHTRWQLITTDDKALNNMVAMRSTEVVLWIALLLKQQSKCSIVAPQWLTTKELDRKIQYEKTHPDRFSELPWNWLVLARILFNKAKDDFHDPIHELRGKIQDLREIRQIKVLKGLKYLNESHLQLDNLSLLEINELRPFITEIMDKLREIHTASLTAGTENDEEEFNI
UniProt P36956, sequence (whole entry, unmodified, looked up): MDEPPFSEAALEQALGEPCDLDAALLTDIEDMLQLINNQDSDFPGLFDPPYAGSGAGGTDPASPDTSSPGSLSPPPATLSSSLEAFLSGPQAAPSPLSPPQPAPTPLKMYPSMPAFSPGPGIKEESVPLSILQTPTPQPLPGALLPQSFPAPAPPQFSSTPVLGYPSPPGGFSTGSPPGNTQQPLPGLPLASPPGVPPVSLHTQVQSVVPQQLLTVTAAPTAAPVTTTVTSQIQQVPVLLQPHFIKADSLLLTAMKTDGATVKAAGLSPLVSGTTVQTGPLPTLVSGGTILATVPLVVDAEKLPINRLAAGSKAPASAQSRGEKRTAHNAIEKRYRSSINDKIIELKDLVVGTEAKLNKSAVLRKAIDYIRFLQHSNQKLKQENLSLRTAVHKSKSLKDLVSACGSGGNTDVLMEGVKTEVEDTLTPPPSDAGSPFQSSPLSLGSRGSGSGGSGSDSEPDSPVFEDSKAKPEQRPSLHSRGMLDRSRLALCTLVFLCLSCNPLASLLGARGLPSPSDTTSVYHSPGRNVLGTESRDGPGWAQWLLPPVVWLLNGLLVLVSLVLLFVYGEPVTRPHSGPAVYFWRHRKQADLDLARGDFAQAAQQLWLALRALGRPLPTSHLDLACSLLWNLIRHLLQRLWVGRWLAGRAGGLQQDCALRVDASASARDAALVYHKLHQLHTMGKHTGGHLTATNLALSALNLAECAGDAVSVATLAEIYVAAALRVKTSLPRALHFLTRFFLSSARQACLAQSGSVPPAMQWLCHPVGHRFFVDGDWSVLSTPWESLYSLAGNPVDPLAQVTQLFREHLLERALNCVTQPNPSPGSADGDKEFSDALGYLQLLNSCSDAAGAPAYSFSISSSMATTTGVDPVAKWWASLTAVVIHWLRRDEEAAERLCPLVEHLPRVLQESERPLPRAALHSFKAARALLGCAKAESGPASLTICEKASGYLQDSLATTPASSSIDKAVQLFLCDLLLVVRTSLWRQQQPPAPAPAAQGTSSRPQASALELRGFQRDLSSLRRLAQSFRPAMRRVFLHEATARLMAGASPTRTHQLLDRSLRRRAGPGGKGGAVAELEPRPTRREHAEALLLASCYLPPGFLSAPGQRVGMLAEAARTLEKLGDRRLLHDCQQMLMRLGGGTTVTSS
UniProt Q99496, sequence (whole entry, looked up): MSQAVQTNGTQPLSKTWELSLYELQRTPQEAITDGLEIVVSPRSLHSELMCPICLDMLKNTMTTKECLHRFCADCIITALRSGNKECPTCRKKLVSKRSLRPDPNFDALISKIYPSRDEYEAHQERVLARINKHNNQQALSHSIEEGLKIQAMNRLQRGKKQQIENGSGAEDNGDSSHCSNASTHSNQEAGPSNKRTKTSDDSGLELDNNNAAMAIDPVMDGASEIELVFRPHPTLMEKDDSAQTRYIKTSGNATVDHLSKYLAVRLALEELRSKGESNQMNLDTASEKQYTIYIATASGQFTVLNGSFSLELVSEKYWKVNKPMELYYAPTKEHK
UniProt P05787, sequence (whole entry, looked up): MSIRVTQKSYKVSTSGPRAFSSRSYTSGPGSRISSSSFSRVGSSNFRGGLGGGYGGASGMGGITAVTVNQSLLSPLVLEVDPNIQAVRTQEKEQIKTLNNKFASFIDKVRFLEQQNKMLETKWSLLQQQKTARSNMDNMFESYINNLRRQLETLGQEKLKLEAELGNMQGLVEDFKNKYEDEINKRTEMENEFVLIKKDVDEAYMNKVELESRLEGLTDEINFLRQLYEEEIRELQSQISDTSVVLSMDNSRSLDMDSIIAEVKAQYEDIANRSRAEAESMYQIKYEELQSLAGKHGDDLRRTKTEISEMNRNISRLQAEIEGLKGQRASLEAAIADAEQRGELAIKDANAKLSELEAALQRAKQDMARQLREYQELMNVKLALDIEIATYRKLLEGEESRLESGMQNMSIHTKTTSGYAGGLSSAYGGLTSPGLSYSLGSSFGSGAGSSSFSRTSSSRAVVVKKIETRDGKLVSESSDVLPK

For `DNM1L K38A (Homo sapiens)`, “relative GTPase activity” read 10 fold (DNM1L 1-699 (Homo sapiens, UniProt O00429-4); GTPase activity; 1.3 µM total, without actin filaments; higher = more activity).
For `B1 (SIGLEC15 20-263)`, the relative binding was 3.12 fold (GPNMB extracellular domain 23-498 (Homo sapiens, UniProt Q14956); BLI; Fc fusion; together with: sialidase; relative to: untreated GPNMB, lower = reduced binding after sialidase).
Under interaction screen, `NSE3 (Saccharomyces cerevisiae, UniProt Q05541)` is recorded as “cross-linked” (SMC6; cross-linking MS; hits only).
For `KRT8 (Homo sapiens, UniProt P05787)`, cross-linked residues read “K92 to K145” (PDIA4 (Homo sapiens, UniProt P13667); cross-linking MS; cells; together with: iqPIR).
`trastuzumab-MMAE ADC IgG1` — result for “KD fold increase”: 1.4 fold (FCGR1A (Homo sapiens, UniProt P12314); BLI; ADC; relative to: unconjugated Trastuzumab, higher = weaker binding).
For `SAAAAGDDDDLYN (CDC48A 797-809 (Arabidopsis thaliana))`, the ΔH was -7.41 ± 0.191 kcal/mol (PUX2 157-273 (Arabidopsis thaliana, UniProt Q9ZU93); ITC; peptide).
For `human EEF1G`, “log2 fold change” read 0.33 (PP6C (human); co-immunoprecipitation, IP-MS; CYB5R4 knockout cells; concentration not given; relative to: CYB5R4 knockout over parental).
`B2 (LMNA 389-572)` gave a ΔH of -214 ± 31 kcal/mol (SREBF1 227-487 (Homo sapiens, UniProt P36956); ITC; single-site fit).
`B3 (EFR3A 721-791)` has a koff of 0.000121 s⁻¹ (TTC7B/FAM126B 1-308; BLI).
For `FGG (Homo sapiens, UniProt P02679)`, cross-linked residues read “K196 to K1667” (KIAA1210 (Homo sapiens, UniProt Q9ULL0); cross-linking MS; together with: DSSO).
`ADCYAP1 PACAP (Homo sapiens)` has a pKB of 83.2 nM (VIPR2 (Homo sapiens, UniProt P41587); cAMP accumulation, antagonist; Cos7; VPAC2, together with: VIP).
The affinity enhancement of `B4` is reported as 591 fold (NOTCH3 EGF5-12 197-505 (Homo sapiens, UniProt Q9UM47); SPR; relative to: WT, higher = stronger binding).
`FGB (Homo sapiens, UniProt P02675)` — result for cross-linked residues: “K295 to K179” (PLAA (Homo sapiens, UniProt Q9Y263); cross-linking MS; together with: DSSO).
`ARTKQTARKSTG (histone H3 peptide 1-12; K4me1)`: “molecule per partner” 0.72 (Ehd3 417-547 H441A (Oryza sativa, UniProt Q6ZJM9); ITC; peptide).
For `CFB (Homo sapiens, UniProt P00751)`, cross-linked residues read “K732 to K160” (FGB (Homo sapiens, UniProt P02675); cross-linking MS; together with: DSSO).
`Mcm2-7, DyLight 650 on Mcm6 N-terminus (Saccharomyces cerevisiae)`: “delay in median formation time” > 2 fold (ORC CDK-phosphorylated, Orc2 and Orc6 (Saccharomyces cerevisiae); FRET; relative to: unphosphorylated ORC, higher = longer delay).
The Ki of `B5 (TIMP1)` is reported as 2.5 nM (MMP1 100-269 (Homo sapiens, UniProt P03956); MMP-1 inhibition, inhibitor, Morrison tight-binding equation).
With `B6 (AIPL1 residues 8-end 8-328)` the Kd was 1780 nM (HSP90AB1 full length, AMPPNP-bound (Homo sapiens, UniProt P08238); BLI; 26 °C).
Under cross-linked residues, `FGA (Homo sapiens, UniProt P02671)` is recorded as “K448 to K177” (PTPN18 (Homo sapiens, UniProt Q99952); cross-linking MS; together with: DSSO).
The Gαt bound of `RGS9/GNB5 (Bos taurus)` is reported as 1% (GNAT1 (Bos taurus, UniProt P04695); co-IP; relative to: total).
Under “detachment rate without load”, `ACTA1 (Gallus gallus, UniProt P68139)` is recorded as 112 s⁻¹ (MYH1 (Oryctolagus cuniculus, UniProt A0A5F9CQ93); laser trap; together with: ATP 100 µM).
`CAMK2D F368A (Homo sapiens)` gave a tetramers of 5% (itself; mass photometry; 100 nM; higher = more tetramers).
With `B7 (CD93 25-347)` the affinity decrease was > 10 fold (IGFBP7 30-159 Y80A (Homo sapiens, UniProt Q16270); ITC; 25 °C; relative to: wild-type IGFBP7, higher = weaker binding).
The koff of `MBL-A mature, hydroxylysine, hydroxyproline in collagen (Rattus norvegicus, UniProt P19999)` is reported as 0.00384 s⁻¹ (C1R (Homo sapiens, UniProt P00736); SPR; together with: CaCl2 140 mM).
Under “molecule per partner”, `DLDSDDEY (TELO2 488-494 (Homo sapiens); pS491)` is recorded as 0.6 (PIH1D1 51-180 R163A (Homo sapiens, UniProt Q9NWS0); ITC; peptide).
Under interaction screen, `KRE29 (Saccharomyces cerevisiae, UniProt P40026)` is recorded as “cross-linked” (SMC6; cross-linking MS; hits only).
Under cross-linked residues, `ALB (Homo sapiens, UniProt P02768)` is recorded as “K219 to K572” (NLGN3 (Homo sapiens, UniProt Q9NZ94); cross-linking MS; together with: DSSO).
`spindlin-1 (human)` — result for “log2 fold change”: -0.27 (PP6C (human); co-immunoprecipitation, IP-MS; CYB5R4 knockout cells; concentration not given; relative to: CYB5R4 knockout over parental).
For `DYNLRB1/DYNLL1/DYNLT1/DYNC1LI2/DYNC1I2/DYNC1H1 dynein-1 complex (Homo sapiens)`, the Ka was > 1.6e+06 M⁻¹ (BICD2/HOOK3 chimera BicD2 CC, Hook3 LIC-BD 1-98, HaloTag; pull-down).
`DLL4 fragment (Homo sapiens)` has an EC50 of 16 nM (NOTCH1 full length, on cells (UniProt P46531); Notch1 reporter activation, agonist; CHO-K1 N1-Gal4).
For `PDHX (Homo sapiens, UniProt O00330)`, cross-linked residues read “K488 to K473” (DLAT (Homo sapiens, UniProt P10515); cross-linking MS; cells; together with: iqPIR).
The Ki of `ACPFGCMKNWSWPIWCTNA (Bicycle 74 bicyclic peptide; C-terminal amide/TATA scaffold, three cysteines cyclised)` is reported as 25.6 nM (NECTIN4; fluorescence polarisation; peptide).
For `B8 (NOTCH1 1758-2126)`, the ΔH was -19 kcal/mol (RBPJ 25-449 (Homo sapiens, UniProt Q06330); ITC).
With `PFVVGGEDLDPFGPRRGGMIVDP (PSMF1 190-212 (Homo sapiens, UniProt Q92530))` the IC50 was 50000 nM (20S proteasome core particle (Homo sapiens, UniProt P28072); β5 activity inhibition, inhibitor; peptide; 10 nM, together with: suc-LLVY-AMC).
`ACPFGCMKNWSWPIWCTAK (Bicycle 73 bicyclic peptide; C-terminal amide/TATA scaffold, three cysteines cyclised)` has a Ki of 35.9 nM (NECTIN4; fluorescence polarisation; peptide).
`MCM5 (Saccharomyces cerevisiae, UniProt P29496)` — result for interaction screen: “cross-linked” (PSF2 (Saccharomyces cerevisiae, UniProt P40359); cross-linking MS; hits only).
Under interaction screen, `RNF2 (Homo sapiens, UniProt Q99496)` is recorded as “cross-linked” (CBX8 (Homo sapiens, UniProt Q9HC52); cross-linking MS; hits only).
For `ecfA (Listeria monocytogenes)`, “subunits per oligomer” read 1 (EcfA' (Listeria monocytogenes); SEC-MALS).
For `H3C1 N-terminal peptide, K14 propionyl`, the ΔH was -1.7 kcal/mol (KAT6A 194-323 (Homo sapiens, UniProt Q92794); ITC; pH 7.5).

Repeated from above:
`ADCYAP1 PACAP (Homo sapiens)` has a pKB of 83.2 nM (VIPR2 (Homo sapiens, UniProt P41587); cAMP accumulation, antagonist; Cos7; VPAC2, together with: VIP).
The affinity enhancement of `B4` is reported as 591 fold (NOTCH3 EGF5-12 197-505 (Homo sapiens, UniProt Q9UM47); SPR; relative to: WT, higher = stronger binding).
